Measured values gathered from unrelated publications.
Numbers after ± are the reported error.
Uncharacterized protein: Uncharacterized protein (Equus caballus, UniProt Q38RB9)
MDM2: E3 ubiquitin-protein ligase Mdm2 (MDM2, Homo sapiens, UniProt Q00987)
Sequence of UniProt Q00987 (whole entry, looked up): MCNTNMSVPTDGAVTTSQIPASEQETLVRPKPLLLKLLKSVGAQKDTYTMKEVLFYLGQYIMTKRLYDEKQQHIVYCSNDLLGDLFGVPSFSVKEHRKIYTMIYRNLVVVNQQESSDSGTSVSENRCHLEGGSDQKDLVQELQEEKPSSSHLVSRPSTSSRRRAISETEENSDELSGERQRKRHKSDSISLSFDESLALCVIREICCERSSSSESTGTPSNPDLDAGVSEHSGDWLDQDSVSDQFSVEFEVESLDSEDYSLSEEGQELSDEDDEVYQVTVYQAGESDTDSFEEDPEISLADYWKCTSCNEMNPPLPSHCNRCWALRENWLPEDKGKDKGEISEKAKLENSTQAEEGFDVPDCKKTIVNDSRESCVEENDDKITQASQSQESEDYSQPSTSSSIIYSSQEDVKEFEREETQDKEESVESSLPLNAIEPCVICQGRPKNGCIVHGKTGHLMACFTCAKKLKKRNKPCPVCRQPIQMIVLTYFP
gag-pol reverse transcriptase: Gag-Pol polyprotein, reverse transcriptase (gag-pol, Human immunodeficiency virus 1, UniProt P03366)
Cytochrome P450 2A13: Cytochrome P450 2A13 (Homo sapiens, UniProt Q16696)
Sequence of UniProt Q16696 (whole entry, looked up): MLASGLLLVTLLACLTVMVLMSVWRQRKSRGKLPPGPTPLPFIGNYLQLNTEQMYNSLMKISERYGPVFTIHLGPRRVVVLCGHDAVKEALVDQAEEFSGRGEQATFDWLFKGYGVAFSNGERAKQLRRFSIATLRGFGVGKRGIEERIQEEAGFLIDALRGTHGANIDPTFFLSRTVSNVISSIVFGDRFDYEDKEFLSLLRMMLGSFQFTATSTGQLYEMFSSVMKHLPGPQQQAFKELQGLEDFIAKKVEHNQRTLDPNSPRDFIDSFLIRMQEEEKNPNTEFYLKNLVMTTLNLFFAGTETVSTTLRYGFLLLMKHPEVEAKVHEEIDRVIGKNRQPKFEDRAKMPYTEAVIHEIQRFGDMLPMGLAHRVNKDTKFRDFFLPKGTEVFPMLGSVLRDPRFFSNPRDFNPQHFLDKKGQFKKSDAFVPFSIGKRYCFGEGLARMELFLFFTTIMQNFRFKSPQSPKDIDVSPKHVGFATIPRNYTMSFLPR
Sequence of UniProt Q12791 (whole entry, looked up): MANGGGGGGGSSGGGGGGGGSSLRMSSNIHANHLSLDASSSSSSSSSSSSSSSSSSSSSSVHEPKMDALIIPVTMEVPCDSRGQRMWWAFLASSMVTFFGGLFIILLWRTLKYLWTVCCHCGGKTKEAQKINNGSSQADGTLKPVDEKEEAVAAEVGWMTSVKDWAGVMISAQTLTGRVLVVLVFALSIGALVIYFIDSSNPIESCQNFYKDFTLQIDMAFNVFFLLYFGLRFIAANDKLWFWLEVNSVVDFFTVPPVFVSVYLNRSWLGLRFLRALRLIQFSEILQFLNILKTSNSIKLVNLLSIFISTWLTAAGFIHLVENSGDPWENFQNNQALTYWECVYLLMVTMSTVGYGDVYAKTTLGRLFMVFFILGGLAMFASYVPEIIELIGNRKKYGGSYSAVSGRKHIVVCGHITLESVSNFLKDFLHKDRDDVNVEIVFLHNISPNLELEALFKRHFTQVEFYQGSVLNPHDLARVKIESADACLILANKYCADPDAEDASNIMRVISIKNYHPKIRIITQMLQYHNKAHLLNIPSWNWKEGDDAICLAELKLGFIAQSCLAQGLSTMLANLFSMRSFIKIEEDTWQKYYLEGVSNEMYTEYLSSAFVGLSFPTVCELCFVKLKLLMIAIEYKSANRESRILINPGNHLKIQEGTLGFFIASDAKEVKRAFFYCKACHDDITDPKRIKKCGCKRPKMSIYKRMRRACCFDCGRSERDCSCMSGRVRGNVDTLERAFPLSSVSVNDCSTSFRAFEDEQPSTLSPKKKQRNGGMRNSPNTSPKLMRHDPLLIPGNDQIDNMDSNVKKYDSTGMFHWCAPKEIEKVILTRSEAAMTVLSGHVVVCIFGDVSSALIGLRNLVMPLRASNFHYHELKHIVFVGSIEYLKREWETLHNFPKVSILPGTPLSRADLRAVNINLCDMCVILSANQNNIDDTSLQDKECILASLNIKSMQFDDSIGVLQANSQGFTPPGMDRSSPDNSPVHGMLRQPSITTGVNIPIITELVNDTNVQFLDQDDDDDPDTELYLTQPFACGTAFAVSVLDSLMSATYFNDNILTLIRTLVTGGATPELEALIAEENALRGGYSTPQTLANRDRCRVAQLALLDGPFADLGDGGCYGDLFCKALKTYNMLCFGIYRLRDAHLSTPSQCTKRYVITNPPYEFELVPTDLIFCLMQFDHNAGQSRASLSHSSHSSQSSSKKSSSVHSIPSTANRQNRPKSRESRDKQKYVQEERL
Sequence of UniProt Q15391 (whole entry, looked up): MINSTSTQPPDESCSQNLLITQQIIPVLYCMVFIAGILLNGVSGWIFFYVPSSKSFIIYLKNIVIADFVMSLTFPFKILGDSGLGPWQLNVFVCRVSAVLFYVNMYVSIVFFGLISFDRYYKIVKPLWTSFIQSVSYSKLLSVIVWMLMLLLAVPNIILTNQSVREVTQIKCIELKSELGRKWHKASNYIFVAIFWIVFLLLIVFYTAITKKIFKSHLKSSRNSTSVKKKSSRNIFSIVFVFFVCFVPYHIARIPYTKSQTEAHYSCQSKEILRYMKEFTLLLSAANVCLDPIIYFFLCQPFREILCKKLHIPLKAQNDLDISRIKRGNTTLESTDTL
Sequence of UniProt P02708 (whole entry, looked up): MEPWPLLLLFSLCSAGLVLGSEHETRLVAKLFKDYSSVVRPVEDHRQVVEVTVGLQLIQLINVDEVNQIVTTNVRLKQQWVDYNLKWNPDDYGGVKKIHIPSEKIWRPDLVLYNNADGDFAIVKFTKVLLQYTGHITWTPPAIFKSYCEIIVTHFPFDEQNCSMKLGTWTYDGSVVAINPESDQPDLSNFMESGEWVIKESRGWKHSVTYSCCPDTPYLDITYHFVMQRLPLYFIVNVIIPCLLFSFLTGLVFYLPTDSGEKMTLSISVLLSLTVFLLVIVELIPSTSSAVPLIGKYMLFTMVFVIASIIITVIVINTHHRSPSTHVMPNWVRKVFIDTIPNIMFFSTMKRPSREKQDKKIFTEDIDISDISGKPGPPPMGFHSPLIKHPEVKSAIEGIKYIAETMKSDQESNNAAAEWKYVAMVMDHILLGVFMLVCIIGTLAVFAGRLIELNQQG
Sequence of UniProt P15207 (whole entry, looked up): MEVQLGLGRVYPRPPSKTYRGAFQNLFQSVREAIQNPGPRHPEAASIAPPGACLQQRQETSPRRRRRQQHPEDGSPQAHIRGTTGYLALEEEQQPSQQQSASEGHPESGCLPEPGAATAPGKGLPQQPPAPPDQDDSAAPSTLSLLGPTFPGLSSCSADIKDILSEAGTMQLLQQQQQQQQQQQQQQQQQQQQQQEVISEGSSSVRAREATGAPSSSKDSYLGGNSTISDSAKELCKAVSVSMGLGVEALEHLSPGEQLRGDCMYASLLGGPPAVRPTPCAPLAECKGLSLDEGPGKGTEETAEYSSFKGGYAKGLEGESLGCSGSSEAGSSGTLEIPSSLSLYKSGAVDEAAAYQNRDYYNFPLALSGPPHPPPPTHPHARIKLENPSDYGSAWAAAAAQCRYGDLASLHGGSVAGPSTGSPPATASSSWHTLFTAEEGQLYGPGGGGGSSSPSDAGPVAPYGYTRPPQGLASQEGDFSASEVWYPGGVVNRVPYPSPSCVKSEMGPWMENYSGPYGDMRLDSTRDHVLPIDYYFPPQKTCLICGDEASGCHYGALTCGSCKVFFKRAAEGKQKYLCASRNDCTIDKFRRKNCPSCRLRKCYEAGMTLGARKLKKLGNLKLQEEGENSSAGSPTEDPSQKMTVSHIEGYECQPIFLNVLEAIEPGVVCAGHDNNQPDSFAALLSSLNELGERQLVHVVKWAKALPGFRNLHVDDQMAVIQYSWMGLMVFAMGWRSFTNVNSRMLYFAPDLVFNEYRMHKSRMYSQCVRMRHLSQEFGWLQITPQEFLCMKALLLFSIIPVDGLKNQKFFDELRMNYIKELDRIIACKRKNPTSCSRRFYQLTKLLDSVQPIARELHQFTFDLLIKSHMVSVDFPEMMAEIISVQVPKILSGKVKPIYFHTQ
Sequence of UniProt Q8BHN3 (whole entry, looked up): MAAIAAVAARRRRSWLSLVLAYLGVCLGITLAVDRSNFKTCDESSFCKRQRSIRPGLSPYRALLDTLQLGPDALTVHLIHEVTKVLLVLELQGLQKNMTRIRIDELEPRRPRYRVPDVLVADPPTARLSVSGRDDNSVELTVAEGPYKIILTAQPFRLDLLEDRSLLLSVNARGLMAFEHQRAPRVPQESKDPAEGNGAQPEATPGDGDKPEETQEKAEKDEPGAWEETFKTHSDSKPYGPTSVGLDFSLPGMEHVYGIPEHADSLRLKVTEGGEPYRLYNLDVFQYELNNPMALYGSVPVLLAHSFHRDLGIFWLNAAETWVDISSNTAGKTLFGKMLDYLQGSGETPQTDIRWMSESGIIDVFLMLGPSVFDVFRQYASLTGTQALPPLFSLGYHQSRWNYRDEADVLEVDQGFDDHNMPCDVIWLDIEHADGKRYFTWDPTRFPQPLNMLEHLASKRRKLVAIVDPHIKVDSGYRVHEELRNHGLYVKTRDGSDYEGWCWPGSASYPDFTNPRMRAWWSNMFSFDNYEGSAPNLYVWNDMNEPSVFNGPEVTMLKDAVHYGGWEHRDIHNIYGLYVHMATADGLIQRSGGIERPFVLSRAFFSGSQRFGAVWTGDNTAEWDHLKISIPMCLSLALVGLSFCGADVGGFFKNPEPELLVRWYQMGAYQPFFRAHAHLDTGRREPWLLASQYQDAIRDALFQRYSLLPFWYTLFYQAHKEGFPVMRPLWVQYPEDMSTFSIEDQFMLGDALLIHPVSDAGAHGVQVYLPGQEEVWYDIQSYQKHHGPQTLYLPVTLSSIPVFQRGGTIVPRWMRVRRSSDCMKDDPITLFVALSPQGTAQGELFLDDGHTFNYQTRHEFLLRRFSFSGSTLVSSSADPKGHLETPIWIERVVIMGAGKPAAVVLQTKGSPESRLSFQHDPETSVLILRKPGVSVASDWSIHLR
Sequence of UniProt P14555 (whole entry, looked up): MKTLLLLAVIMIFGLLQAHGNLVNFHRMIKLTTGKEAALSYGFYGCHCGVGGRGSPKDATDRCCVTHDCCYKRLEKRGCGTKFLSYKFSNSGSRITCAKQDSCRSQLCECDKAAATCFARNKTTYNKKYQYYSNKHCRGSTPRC

With `CC(C)C[C@H](NC(=O)[C@H](CCC(=O)O)NC(=O)CNC(=O)[C@H](Cc1ccccc1)NC(=O)[C@H](CCCNC(=N)N)NC(=O)[C@H](C)NC(=O)CNC(=O)[C@H](CC(=O)O)NC(=O)[C@@H](N)CCCNC(=N)N)C(=O)O` the IC50 was 0.0081 µM (Uncharacterized protein; peptide binding, competitor, competitive radioligand binding; purified horse MHC class I; pH 7).
For `CNC(C)Cc1ccc2n[se]nc2c1` (centres unmarked), the IC50 was 9.8 ± 2.2 µM (Sodium-dependent dopamine transporter (SLC6A3, Homo sapiens, UniProt Q01959)).
The IC50 of `CN1CCN(CCOc2c(Cl)cc(C(=O)N[C@@H](Cc3ccccc3)C(=O)O)c(O)c2Cl)CC1` is reported as 6.7 µM (Cleavage and polyadenylation specificity factor subunit 3 (CPSF3, Homo sapiens, UniProt Q9UKF6); pre-mRNA cleavage, inhibitor; HeLa nuclear extract; together with: Chimera_4 substrate).
The IC50 of `CN(C)C(=O)C(CCN1CCC(O)(c2ccc(Cl)cc2)CC1)(c1ccccc1)c1ccccc1` is reported as 15.8 ± 5.9 µM (Calcium-activated potassium channel subunit alpha-1, with LRRC26 γ1 subunit (KCNMA1, Homo sapiens, UniProt Q12791); BK channel conductance, inhibitor, inside-out patch clamp; BKα/γ1, Vm -10 mV, nominally Ca2+-free).
With `Cc1cc(O)cc(C)c1C[C@H](N)C(=O)N1Cc2ccccc2CC1C(=O)NCC(=O)NC(Cc1ccc(Cl)cc1)C(=O)N(C)CCC[C@@]1(c2ccc(F)cc2)OCc2cc(C#N)ccc21` (stereo in doubt) the IC50 was 0.0741 µM (Mu-type opioid receptor (Oprm1, Rattus norvegicus, UniProt P33535)).
`O=[N+]([O-])c1cc(NCCCCCCN2C[C@H](O)[C@@H](O)[C@H](O)[C@H]2CO)cc(-c2ccncc2)c1` has an IC50 of under 0.001 µM (Ganab (Mus musculus, UniProt Q8BHN3); enzyme activity, inhibitor; together with: 4-methylumbelliferyl substrate).
The IC50 of `O=C(O)c1cc(-c2ccc([C@H]3C[C@H]4C[C@@H]3CN4)cc2)c2ccc(-c3ccc(C(F)(F)F)cc3)cc2c1` (racemic) is reported as 0.0059 ± 0.0007 µM (P2Y purinoceptor 14 (P2RY14, Homo sapiens, UniProt Q15391); antagonist, flow cytometry; CHO expressing target; together with: fluorescent antagonist 20 nM).
`CSCC[C@H](NC(=O)[C@@H](NC(=O)[C@H](Cc1c[nH]c2ccccc12)NC(=O)[C@H](Cc1ccc(O)cc1)NC(=O)CNC(C)=O)C(C)C)C(=O)N[C@@H](Cc1ccccc1)C(=O)N[C@@H](Cc1ccc(O)cc1)C(N)=O` gave an IC50 of 5.99 µM (Programmed cell death 1 ligand 1, with PD-1 (CD274, Homo sapiens, UniProt Q9NZQ7); PD-1/PD-L1 binding, ELISA; together with: biotinylated human PD-1).
With `CCOC(=O)[C@H]1Cc2c(cc([N+](=O)[O-])cc2[N+](=O)[O-])[C@@H](O)[C@@]12C(=O)Nc1cccc(Br)c12` the IC50 was 1.4 ± 0.13 µM (MDM2).
The IC50 of `N/C(=N\C(=O)c1nc(Cl)c(N)nc1N)NCc1ccc(Cl)c(Cl)c1` is reported as 45 ± 1 µM (Genome polyprotein, 3D RNA polymerase (Coxsackievirus B3, UniProt P03313); RNA polymerase activity, inhibitor, single AMP incorporation; Mg2+ preincubation).
`O=C1CSC(c2cccc(Cl)c2Cl)N1c1nc(-c2ccc(S(=O)(=O)N3CCCC3)cc2)cs1` (centres unmarked) gave an IC50 of over 4 µM (gag-pol reverse transcriptase).
`c1ccc2c(c1)OCC(C1=NCCN1)O2` (centres unmarked) has an IC50 of 0.00696 µM (rat imidazoline I2 receptor; radioligand binding; brain).
For `Cc1ccccc1`, the IC50 was over 200 µM (Cytochrome P450 2A13; coumarin 7-hydroxylation, inhibitor; 20 (unit not given), pH 7.4, range of group, together with: 10 µM coumarin).
For `CC[C@H](C)[C@H](NC(=O)[C@H](CCCCN)NC(=O)[C@H](CC(N)=O)NC(=O)[C@H](Cc1ccccc1)NC(=O)[C@H](C)NC(=O)[C@H](C)NC(=O)[C@@H](NC(=O)[C@H](CC(=O)O)NC(=O)[C@@H](N)C(C)C)[C@@H](C)CC)C(=O)O`, the IC50 was 0.048 µM (Uncharacterized protein; peptide binding, competitor, competitive radioligand binding; purified horse MHC class I; pH 7).
`O=c1c2ccccc2[nH]c(=S)n1-c1ccccc1` gave an IC50 of 104 ± 8.34 µM (Phospholipase A2, membrane associated (Homo sapiens, UniProt P14555); enzyme activity, inhibitor, colorimetric).
With `O=C1CSC(c2cccc(F)c2)N1c1cccc(S(=O)(=O)Nc2nccs2)c1` (centres unmarked) the IC50 was over 4 µM (gag-pol reverse transcriptase).
For `COc1cc(Nc2ncc(F)c(Nc3ccc4c(n3)NC(=O)C(C)(C)O4)n2)cc(OC)c1OC`, the IC50 was over 10 µM (fMet-Leu-Phe receptor (FPR1, Homo sapiens, UniProt P21462)).
For `C[C@H]1CN(c2n[nH]c3nc(N[C@H]4CC[C@H](NS(=O)(=O)CCC(F)(F)F)CC4)ncc23)CCO1`, the IC50 was at least 20 µM (Prohibitin-2 (PHB2, Homo sapiens, UniProt Q99623); biochemical).
The IC50 of `COc1cc(C(=O)N2CC[C@@H](O)[C@@H](N)C2)cc2nc(-c3cc4ccccc4n3CC3CC3)n(C)c12` is reported as 1.58 µM (Acetylcholine receptor subunit alpha (CHRNA1, Homo sapiens, UniProt P02708); intracellular calcium, antagonist, fluorescence).
The IC50 of `CCN1C(=O)SC[C@H]1[C@@]1(O)C[C@H]2C[C@@H](CC[C@H](C)/C=C\C=C\CC/C(C)=C\C(=O)O2)O1` is reported as 0.283 ± 0.051 µM (Actin, alpha skeletal muscle, pyrene-labeled (ACTA1, Oryctolagus cuniculus, UniProt P68135); actin polymerization, pyrene actin).
The IC50 of `O=C(CCl)N1CCC(C(O)(c2ccccc2)c2ccccc2)CC1` is reported as 9.2 µM (Isocitrate dehydrogenase [NADP] cytoplasmic (IDH1, Homo sapiens, UniProt O75874, R132H); probe labelling, covalent inhibitor, gel-based competitive ABPP; MDA-MB-231 lysate; together with: IA-rhodamine).
The IC50 of `C[C@@H]1[C@@H](c2ccc(Cl)cc2)SC(=O)N1C(=O)NC1CCCCC1` is reported as over 100 µM (Androgen receptor (Ar, Rattus norvegicus, UniProt P15207); binding, competitive ligand binding).
`C=Cc1ccc2ccc3cccc4ccc1c2c34` has an IC50 of over 180 µM (Cytochrome P450 2A13; enzyme activity, inhibitor; 20 min, pH 7.4).
`CC(=O)N[C@@H](CC(C)C)C(=O)N[C@H](C(=O)N[C@@H](Cc1ccccc1)C(=O)N[C@@]1(C)CCCC=CCCC[C@@](C)(C(=O)N[C@@H](CCC(N)=O)C(=O)N[C@@H](CC(C)C)C(=O)N[C@H](C(=O)N[C@@H](CO)C(N)=O)[C@@H](C)O)NC(=O)[C@H](Cc2c[nH]c3ccccc23)NC(=O)[C@H](Cc2ccc(O)cc2)NC(=O)[C@H](CCC(=O)O)NC1=O)[C@@H](C)O` gave an IC50 of 0.049 µM (MDM2).
`Cc1c2ccccc2c(C)c2c1ccc1ccccc12` has an IC50 of over 200 µM (Cytochrome P450 2A13; enzyme activity, inhibitor; 20 min, pH 7.4).
`CC[C@H](C)[C@H](NC(=O)[C@@H]1CCCN1C(=O)[C@@H](NC(=O)[C@H](CC(=O)O)NC(=O)[C@@H](N)CCCNC(=N)N)[C@@H](C)CC)C(=O)N[C@H](C(=O)N[C@@H](Cc1c[nH]cn1)C(=O)N[C@@H](CCCNC(=N)N)C(=O)N[C@H](C(=O)O)C(C)C)C(C)C` gave an IC50 of 0.037 µM (Uncharacterized protein; peptide binding, competitor, competitive radioligand binding; purified horse MHC class I; pH 7).
With `C#Cc1cc2ccccc2c2ccccc12` the IC50 was 15 to 80 µM (Cytochrome P450 2A13; enzyme activity, inhibitor; 20 min, pH 7.4).
For `O=C1CSC(c2ccc(Br)cc2)N1c1nc(-c2ccc(S(=O)(=O)N3CCCC3)cc2)cs1` (centres unmarked), the IC50 was over 4 µM (gag-pol reverse transcriptase).
For `CC(C)C[C@H]1CNC(=O)N2C[C@H](C[C@H]2C(N)=O)SCCCCCCSC[C@H](NC(=O)[C@H](Cc2ccccc2)NC(=O)[C@H](CO)NC(=O)[C@@H](N)[C@@H](C)O)C(=O)N[C@@H](CCC(=O)O)C(=O)N[C@@H](Cc2ccc(O)cc2)C(=O)N[C@@H](Cc2c[nH]c3ccccc23)C(=O)N[C@@H](C)C(=O)N[C@@H](CC(C)C)CNC(=O)N1`, the IC50 was 0.0747 µM (Protein Mdm4, with p53 (MDM4, Homo sapiens, UniProt O15151); p53 binding, TR-FRET).

Excerpt of the above:
`O=C1CSC(c2cccc(Cl)c2Cl)N1c1nc(-c2ccc(S(=O)(=O)N3CCCC3)cc2)cs1` (centres unmarked) gave an IC50 of over 4 µM (gag-pol reverse transcriptase).
`c1ccc2c(c1)OCC(C1=NCCN1)O2` (centres unmarked) has an IC50 of 0.00696 µM (rat imidazoline I2 receptor; radioligand binding; brain).
For `Cc1ccccc1`, the IC50 was over 200 µM (Cytochrome P450 2A13; coumarin 7-hydroxylation, inhibitor; 20 (unit not given), pH 7.4, range of group, together with: 10 µM coumarin).
